Results gathered from unrelated publications.
Compare with care: the assays were run in different laboratories.
Partner: itself
B1: CASP2 170-452 D333A/D347A (Homo sapiens, UniProt P42575); sequence looked up; chain GPVCLQVKPCTPEFYQTHFQLAYRLQSRPRGLALVLSNVHFTGEKELEFRSGGDVDHSTLVTLFKLLGYDVHVLCDQTAQEMQEKLQNFAQLPAHRVTDSCIVALLSHGVEGAIYGVDGKLLQLQEVFQLFDNANCPSLQNKPKMFFIQACRGDETDRGVDQQAGKNHAGSPGCEESAAGKEKLPKMRLPTRSDMICGYACLKGTAAMRNTKRGSWYIEALAQVFSERACDMHVADMLVKVNALIKDREGYAPGTEFHRCKEMSEYCSTLCRHLYLFPGHPPT
B2: SOAT1 (Homo sapiens, UniProt P35610); sequence looked up; chain MVGEEKMSLRNRLSKSRENPEEDEDQRNPAKESLETPSNGRIDIKQLIAKKIKLTAEAEELKPFFMKEVGSHFDDFVTNLIEKSASLDNGGCALTTFSVLEGEKNNHRAKDLRAPPEQGKIFIARRSLLDELLEVDHIRTIYHMFIALLILFILSTLVVDYIDEGRLVLEFSLLSYAFGKFPTVVWTWWIMFLSTFSVPYFLFQHWATGYSKSSHPLIRSLFHGFLFMIFQIGVLGFGPTYVVLAYTLPPASRFIIIFEQIRFVMKAHSFVRENVPRVLNSAKEKSSTVPIPTVNQYLYFLFAPTLIYRDSYPRNPTVRWGYVAMKFAQVFGCFFYVYYIFERLCAPLFRNIKQEPFSARVLVLCVFNSILPGVLILFLTFFAFLHCWLNAFAEMLRFGDRMFYKDWWNSTSYSNYYRTWNVVVHDWLYYYAYKDFLWFFSKRFKSAAMLAVFAVSAVVHEYALAVCLSFFYPVLFVLFMFFGMAFNFIVNDSRKKPIWNVLMWTSLFLGNGVLLCFYSQEWYARQHCPLKNPTFLDYVRPRSWTCRYVF
B3: aqpZ 1-231 K4A (Escherichia coli, UniProt P60844); chain MFRALAAECFGTFWLVFGGCGSAVLAAGFPELGIGFAGVALAFGLTVLTMAFAVGHISGGHFNPAVTIGLWAGGRFPAKEVVGYVIAQVVGGIVAAALLYLIASGKTGFDAAASGFASNGYGEHSPGGYSMLSALVVELVLSAGFLLVIHGATDKFAPAGFAPIAIGLALTLIHLISIPVTNTSVNPARSTAVAIFQGGWALEQLWFFWVVPIVGGIIGGLIYRTLLEKRD
B4: CAB1 1-367 (Saccharomyces cerevisiae, UniProt Q04430); chain MPRITQEISYNCDYGDNTFNLAIDIGGTLAKVVFSPIHSNRLMFYTIETEKIDKFMELLHSIIKEHNNGCYRMTHIIATGGGAFKFYDLLYENFPQIKGISRFEEMEGLIHGLDFFIHEIPDEVFTYNDQDGERIIPTSSGTMDSKAIYPYLLVNIGSGVSILKVTEPNNFSRVGGSSLGGGTLWGLLSLITGAQTYDQMLDWAQEGDNSSVDMLVGDIYGTDYNKIGLKSSAIASSFGKVFQNRMTSNKSLENNENKLYSSHESIEKNNGQMFKNPDICKSLLFAISNNIGQIAYLQAKINNIQNIYFGGSYTRGHLTTMNTLSYAINFWSQGSKQAFFLKHEGYLGAMGAFLSASRHSSTKKTST
B5: ADAR1 127-end 127-1226 G1007R (human, UniProt P55265); sequence looked up; chain SSHFQELSIYQDQEQRILKFLEELGEGKATTAHDLSGKLGTPKKEINRVLYSLAKKGKLQKEAGTPPLWKIAVSTQAWNQHSGVVRPDGHSQGAPNSDPSLEPEDRNSTSVSEDLLEPFIAVSAQAWNQHSGVVRPDSHSQGSPNSDPGLEPEDSNSTSALEDPLEFLDMAEIKEKICDYLFNVSDSSALNLAKNIGLTKARDINAVLIDMERQGDVYRQGTTPPIWHLTDKKRERMQIKRNTNSVPETAPAAIPETKRNAEFLTCNIPTSNASNNMVTTEKVENGQEPVIKLENRQEARPEPARLKPPVHYNGPSKAGYVDFENGQWATDDIPDDLNSIRAAPGEFRAIMEMPSFYSHGLPRCSPYKKLTECQLKNPISGLLEYAQFASQTCEFNMIEQSGPPHEPRFKFQVVINGREFPPAEAGSKKVAKQDAAMKAMTILLEEAKAKDSGKSEESSHYSTEKESEKTAESQTPTPSATSFFSGKSPVTTLLECMHKLGNSCEFRLLSKEGPAHEPKFQYCVAVGAQTFPSVSAPSKKVAKQMAAEEAMKALHGEATNSMASDNQPEGMISESLDNLESMMPNKVRKIGELVRYLNTNPVGGLLEYARSHGFAAEFKLVDQSGPPHEPKFVYQAKVGGRWFPAVCAHSKKQGKQEAADAALRVLIGENEKAERMGFTEVTPVTGASLRRTMLLLSRSPEAQPKTLPLTGSTFHDQIAMLSHRCFNTLTNSFQPSLLGRKILAAIIMKKDSEDMGVVVSLGTGNRCVKGDSLSLKGETVNDCHAEIISRRGFIRFLYSELMKYNSQTAKDSIFEPAKGGEKLQIKKTVSFHLYISTAPCGDGALFDKSCSDRAMESTESRHYPVFENPKQGKLRTKVENREGTIPVESSDIVPTWDGIRLGERLRTMSCSDKILRWNVLGLQGALLTHFLQPIYLKSVTLGYLFSQGHLTRAICCRVTRDGSAFEDGLRHPFIVNHPKVGRVSIYDSKRQSGKTKETSVNWCLADGYDLEILDGTRGTVDGPRNELSRVSKKNIFLLFKKLCSFRYRRDLLRLSYGEAKKAARDYETAKNYFKKGLKDMGYGNWISKPQEEKNFYLCPV
B6: PAN1 689-1190 (Saccharomyces cerevisiae, UniProt P32521); sequence looked up; chain LLDNLKNQLKTEPTTTKEKPSFGKIDALSYKNNDDDVLPNYRNRRKVYSAKNEEQSSFSSPSAKSVNHSSSTLQTDDISVDKTVEKKTAKPKYAGFSREINLKNIASLENEIKNISNPENCYDSSIPSDLTSRFDAIIAKLPNLFNEISTIDNEITNAKIQLYRKKNPSSIIGSGPNGEITENDRKKAKSRALLRARMSALTGKSTESEDSLSMEDEQQSAEIKRIQQENGKNQEIIKDIRSSISDISASLKSTMTGSNMISNQEFERWEFGIGLEDGVREFLDDLKSNSNKSVTESSPFVPSSTPTPVDDRSSSPSYSQFKTAEERAAYLKEQAKKRMKEKLAKFDKNRRNVTQSSRSISSENSREQPQQIAGSSNLVEPRATPFQEEKYVEVAQPTQPVQSTQPVQPTQPVQPTQPVQPTQPVQPTQPVQPTQPVQNVYNAKQESDDEDEDDEEKRLQEELKRLKLKKKADKEKRLAALRKQIEDAQNESDEEETNGKDN
B7: GroEL (Pseudomonas aeruginosa, UniProt P30718); sequence looked up; chain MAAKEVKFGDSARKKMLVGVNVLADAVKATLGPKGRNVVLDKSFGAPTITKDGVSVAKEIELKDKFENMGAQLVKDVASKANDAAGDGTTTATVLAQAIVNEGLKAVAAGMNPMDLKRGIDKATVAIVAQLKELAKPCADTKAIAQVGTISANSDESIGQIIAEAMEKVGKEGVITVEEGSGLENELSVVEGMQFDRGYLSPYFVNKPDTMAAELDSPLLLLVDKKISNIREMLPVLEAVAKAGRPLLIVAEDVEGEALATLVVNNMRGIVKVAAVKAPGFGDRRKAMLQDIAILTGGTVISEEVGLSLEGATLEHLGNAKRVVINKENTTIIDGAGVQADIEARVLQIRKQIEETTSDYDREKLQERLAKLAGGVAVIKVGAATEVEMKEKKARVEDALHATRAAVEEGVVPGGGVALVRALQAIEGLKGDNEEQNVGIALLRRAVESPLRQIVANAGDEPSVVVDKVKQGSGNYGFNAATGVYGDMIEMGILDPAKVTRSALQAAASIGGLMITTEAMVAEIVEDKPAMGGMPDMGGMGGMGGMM
B8: sso0001 1-202 C191A (Sulfolobus solfataricus, UniProt Q97TX9); chain MITEFLLKKKLEEHLSHVKEENTIYVTDLVRCPRRVRYESEYKELAISQVYAPSAILGDILHLGLESVLKGNFNAETEVETLREINVGGKVYKIKGRADAIIRNDNGKSIVIEIKTSRSDKGLPLIHHKMQLQIYLWLFSAEKGILVYITPDRIAEYEINEPLDEATIVRLAEDTIMLQNSPRFNWECKYAIFSVICPAKLT
B9: RPRD1A (Homo sapiens, UniProt Q96P16); chain MSAFSEAALEKKLSELSNSQQSVQTLSLWLIHHRKHSRPIVTVWERELRKAKPNRKLTFLYLANDVIQNSKRKGPEFTKDFAPVIVEAFKHVSSETDESCKKHLGRVLSIWEERSVYENDVLEQLKQALYGDKKPRKRTYEQIKVDENENCSSLGSPSEPPQTLDLVRALQDLENAASGDAAVHQRIASLPVEVQEVSLLDKITDKESGERLSKMVEDACMLLADYNGRLAAEIDDRKQLTRMLADFLRCQKEALAEKEHKLEEYKRKLARVSLVRKELRSRIQSLPDLSRLPNVTGSHMHLPFAGDIYSED
B10: GGPS1 R235C (Homo sapiens, UniProt O95749); sequence looked up; chain MEKTQETVQRILLEPYKYLLQLPGKQVRTKLSQAFNHWLKVPEDKLQIIIEVTEMLHNASLLIDDIEDNSKLRRGFPVAHSIYGIPSVINSANYVYFLGLEKVLTLDHPDAVKLFTRQLLELHQGQGLDIYWRDNYTCPTEEEYKAMVLQKTGGLFGLAVGLMQLFSDYKEDLKPLLNTLGLFFQIRDDYANLHSKEYSENKSFCEDLTEGKFSFPTIHAIWSRPESTQVQNILCQRTENIDIKKYCVHYLEDVGSFEYTRNTLKELEAKAYKQIDARGGNPELVALVKHLSKMFKEENE
B11: Npm1 (Mus musculus, UniProt Q61937); sequence looked up; chain MEDSMDMDMSPLRPQNYLFGCELKADKDYHFKVDNDENEHQLSLRTVSLGAGAKDELHIVEAEAMNYEGSPIKVTLATLKMSVQPTVSLGGFEITPPVVLRLKCGSGPVHISGQHLVAVEEDAESEDEDEEDVKLLGMSGKRSAPGGGNKVPQKKVKLDEDDEDDDEDDEDDEDDDDDDFDEEETEEKVPVKKSVRDTPAKNAQKSNQNGKDLKPSTPRSKGQESFKKQEKTPKTPKGPSSVEDIKAKMQASIEKGGSLPKVEAKFINYVKNCFRMTDQEAIQDLWQWRKSL
B12: GajA 1-578 (Bacillus cereus, UniProt J8H9C1); chain MKFSNITIKNFRNFEKVNINLDNKNVIFGMNDIGKTNFLYALRFLLDKEIRKFGFNKSDYHKHDTSKKIEIILTLDLSNYEKDEDTKKLISVVKGARTSANADVFYIALESKYDDKELYGNIILKWGSELDNLIDIPGRGNINALDNVFKVIYINPLVDLDKLFAQNKKYIFEESQGNESDEGILNNIKSLTDQVNQQIGEMTIIKGFQQEITSEYRSLKKEEVSIELKSEMAIKGFFSDIIPYIKKDGDSNYYPTSGDGRRKMLSYSIYNYLAKKKYEDKIVIYLIEEPEISLHRSMQIALSKQLFEQSTYKYFFLSTHSPELLYEMDNTRLIRVHSTEKVVCSSHMYNVEEAYGSVKKKLNKALSSALFAERVLLIEGPSEKILFEKVLDEVEPEYELNGGFLLEVGGTYFNHYVCTLNDLGITHIIKTDNDLKSKKGKKGVYELLGLNRCLNLLGRENLDEITIDIPEDIKGKKKKERLNERKKEIFKQYKNEVGEFLGERIYLSEIDLENDLYSAIGESMKRIFENEDPVHYLQKSKLFNMVELVNNLSTKDCFDVFEHEKFACLKELVGSDRG
B13: yjoB 159-423 (Bacillus subtilis, UniProt O34703); sequence looked up; chain RKVTVFTDGDGGTSREQEAIVREVQRSQVIMNPLLKKEIYRSIDQFFHSDKSFYQTYDIPYKRGILLYGPPGNGKTTLVKSIAGSIDAPVAYWQITEFTSSETIEEVFQAARRLAPAVLVIEDIDSMPEDVRSFFLNTLDGATSKEGLFLIGTTNYPEEIDPGLMNRAGRFDRAYEIGLPDEELRLEYMKMRGFGIFLSEGEIKNAAKLTEGFSFAQLGELYVSSALQWHQEGNHHIETMVKDMTGEQRKSQRGSWMERNKVGFH
Chain of UniProt P21651 (whole entry, looked up): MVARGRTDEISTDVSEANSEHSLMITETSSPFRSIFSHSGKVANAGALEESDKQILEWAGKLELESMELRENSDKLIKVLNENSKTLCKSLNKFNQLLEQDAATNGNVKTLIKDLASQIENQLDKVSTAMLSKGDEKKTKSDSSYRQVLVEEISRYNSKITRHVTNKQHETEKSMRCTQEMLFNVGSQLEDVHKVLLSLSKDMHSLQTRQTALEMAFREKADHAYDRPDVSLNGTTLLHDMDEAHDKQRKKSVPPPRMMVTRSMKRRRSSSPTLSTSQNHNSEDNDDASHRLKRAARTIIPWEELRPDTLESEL
Chain of UniProt Q9BZE9 (whole entry, looked up): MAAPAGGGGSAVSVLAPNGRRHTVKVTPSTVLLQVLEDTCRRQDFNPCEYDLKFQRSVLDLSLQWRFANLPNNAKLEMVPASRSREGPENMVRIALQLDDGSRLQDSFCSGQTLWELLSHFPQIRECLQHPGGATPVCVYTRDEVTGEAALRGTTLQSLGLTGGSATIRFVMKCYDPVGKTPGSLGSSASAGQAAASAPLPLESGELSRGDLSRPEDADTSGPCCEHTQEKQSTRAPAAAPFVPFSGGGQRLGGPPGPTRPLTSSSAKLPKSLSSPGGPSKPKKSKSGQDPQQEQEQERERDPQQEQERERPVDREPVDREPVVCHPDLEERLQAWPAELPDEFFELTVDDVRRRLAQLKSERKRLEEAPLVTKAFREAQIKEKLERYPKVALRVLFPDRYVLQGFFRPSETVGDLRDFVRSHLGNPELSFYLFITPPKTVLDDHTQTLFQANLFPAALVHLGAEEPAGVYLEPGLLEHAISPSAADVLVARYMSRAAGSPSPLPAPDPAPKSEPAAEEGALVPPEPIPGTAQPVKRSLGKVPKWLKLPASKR

| Substance | method | form | matrix | temperature | setting | subunits per oligomer |
| --- | --- | --- | --- | --- | --- | --- |
| B1 (CASP2 170-452 D333A/D347A) | SEC | – | – | – | – | 2 |
| B2 (SOAT1) | native gel | – | – | – | CN-PAGE, BN-PAGE | 4 |
| B3 (aqpZ 1-231 K4A) | native MS | – | – | – | – | 4 |
| B4 (CAB1 1-367) | crystal structure | – | – | – | – | 2 |
| ASPSCR1, Alexa Fluor 488 label (Homo sapiens, UniProt Q9BZE9) | AUC | – | – | – | – | 2 |
| B5 (ADAR1 127-end 127-1226 G1007R) | SEC | – | – | – | – | 2 |
| B6 (PAN1 689-1190) | SEC, sucrose gradient sedimentation | – | – | – | – | 2 |
| MKGMSKMPQFLLRWPREVLDLVRKVAEENGRSVNSEIYQRVMESFKKEGRIGA (Arc repressor 1-53 N11L (P22 phage, UniProt P03050)) | SEC | – | – | – | – | 2 |
| B7 (GroEL) | SEC-MALS | – | – | – | – | 14 |
| B8 (sso0001 1-202 C191A) | SEC | – | – | – | – | 5 protomers |
| B9 (RPRD1A) | AUC | – | – | 4 °C | – | 2 |
| B10 (GGPS1 R235C) | native MS | – | – | – | – | 4 |
| B11 (Npm1) | native PAGE | – | not purified | – | not purified | 5 |
| APVDSMLKDMATIILSTFLLIGWVAFIITYPLSMH (IRE1α 435-469) | SDS-PAGE | peptide | – | – | – | 2 |
| B12 (GajA 1-578) | cryo-EM | – | – | – | D2 symmetry, GajA alone | 4 |
| REC107 (Saccharomyces cerevisiae, UniProt P21651) | SEC-MALS | – | – | – | – | 4 |
| B13 (yjoB 159-423) | SEC | – | – | – | – | 6 |

For quick reference, copied from above:
| Substance | method | form | matrix | temperature | setting | subunits per oligomer |
| --- | --- | --- | --- | --- | --- | --- |
| REC107 (Saccharomyces cerevisiae, UniProt P21651) | SEC-MALS | – | – | – | – | 4 |
| B3 (aqpZ 1-231 K4A) | native MS | – | – | – | – | 4 |
